# Results from different studies.
# ± gives the spread as reported.
Structure (SMILES),test,test system,setting,AUC(0-t)
O=C(O)[C@H](c1ccccc1Cl)N1CCc2sccc2C1,,"human patients, CYP3A4 wt/wt, plasma","oral, 75 mg clopidogrel daily, day 7, median",10.1 µg·h/mL
CC(C)[C@H](N)C(=O)NCCCS(=O)(=O)O,,"human, both sexes, plasma","oral, 100 mg capsule",3.61 ± 0.684 µg·h/mL
C[C@@H](Oc1cc(-c2cnn(C3CCNCC3)c2)cnc1N)c1c(Cl)ccc(F)c1Cl,,"healthy human, plasma","oral, 250 mg single fasted, arithmetic mean",2.49 ± 1.07 µg·h/mL
C[C@H](N)C(=O)N1C[C@H](CCCB(O)O)[C@](N)(C(=O)O)C1,,"human, plasma","oral, 50 mg, cycle 1 day 1",8.1 ± 3.25 µg·h/mL
CN(C)C(=N)N=C(N)N,,"human, male","oral, 20 mg",51.7 µM·h
Cc1cc(C)c2c(c1)[C@@H](N(Cc1cc(C(F)(F)F)cc(C(F)(F)F)c1)c1nnn(C)n1)CCCN2C[C@H]1CC[C@H](C(=O)O)CC1,,"human, plasma","oral, 100 mg once daily, steady state, geometric mean",4.61 µg·h/mL
C=C(C)[C@@H]1CC[C@]2(NCCN3CCS(=O)(=O)CC3)CC[C@]3(C)[C@H](CC[C@@H]4[C@@]5(C)CC=C(C6=CC[C@@](CF)(C(=O)O)CC6)C(C)(C)[C@@H]5CC[C@]43C)[C@@H]12,,"healthy human volunteers, plasma","oral, 200 mg, tablet, fasted state, geometric mean",11.4 µg·h/mL
C#C[C@]1(O)CC[C@H]2[C@@H]3CCC4=CC(=O)CC[C@@H]4[C@H]3CC[C@@]21C,,"human female, plasma","oral, 1 mg, day 1, with: ethinyl estradiol 35 µg",0.0381 µg·h/mL
C=CC(=O)N1C[C@H](Nc2ncnc3[nH]ccc23)CC[C@@H]1C,adjusted geometric mean,"human, plasma","oral, 50 mg single dose, with: rifampicin 600 mg once daily for 8 days",0.249 µg·h/mL
CCCCC1(CCCC)CN(c2ccccc2)c2cc(SC)c(OCC(=O)N[C@@H](C(=O)NCC(=O)O)c3ccccc3)cc2S(=O)(=O)C1,,"human, plasma","oral, 2.5 mg, before breakfast",0.000227 µg·h/mL
C=CC(=O)Nc1cc(Nc2ncc(C(=O)OC(C)C)c(-c3cn(C)c4ccccc34)n2)c(OC)cc1N(C)CCN(C)C,,"human, fasted","oral, 40 mg single dose, arithmetic mean",0.18 µg·h/mL
O=c1[nH]c(=O)c(Cc2cccc(C(F)(F)F)c2)c([C@H]2CC[C@H](c3ccccc3)CC2)[nH]1,,"human, fasted, plasma","oral, 900 mg single dose, geometric mean",7.36 µg·h/mL
CC(C)[C@@H](CS(=O)(=O)C(C)C)N1C(=O)[C@@](C)(CC(=O)O)C[C@H](c2cccc(Cl)c2)[C@H]1c1ccc(Cl)cc1,,"human, plasma","oral, 60 mg, new tablet, fasted, arithmetic mean",3.39 µg·h/mL
O=C(NCCN1CCCC1)c1cc(-c2ccc(CN3CCOCC3)cc2)nc2ccc(F)cc12,LC-MS/MS,"human, whole blood","oral, 50 mg, single dose, geometric mean",0.492 µg·h/mL
CCCC[C@H](NC(C)=O)C(=O)N[C@H]1CCC(=O)NC[C@@H](C(=O)N[C@@H](Cc2c[nH]c3ccccc23)C(N)=O)NC(=O)[C@H](CCCNC(=N)N)NC(=O)[C@@H](Cc2ccccc2)NC(=O)[C@H](Cc2c[nH]cn2)NC1=O,,"healthy human, both sexes, plasma","subcutaneous, 3.0 mg once daily, day 1, arithmetic mean",0.154 µg·h/mL
C=CC(=O)N1CCC([C@@H]2CCNc3c(C(N)=O)c(-c4ccc(Oc5ccccc5)cc4)nn32)CC1,,human,"oral, 480 mg, single dose, mean",2.77 µg·h/mL
CNC(=O)c1ccc(-c2cnc3ncc(Cc4ccc5ncccc5c4)n3n2)cc1F,,"healthy human subjects, plasma","oral, 200 mg, geometric mean, with: itraconazole 200 mg/day",7.43 µg·h/mL
CCOc1ccc(Cc2cc([C@]34OC[C@](CO)(O3)[C@@H](O)[C@H](O)[C@H]4O)ccc2Cl)cc1,,"human, plasma","oral, 15 mg, with: sitagliptin 100 mg",1.45 µg·h/mL
Cc1cc(-c2nnc(N)nc2-c2ccc(F)cc2)cc(Cl)n1,,"human patients, plasma","oral, 75 mg nanosuspension, single dose, arithmetic mean",4.06 µg·h/mL
Cc1[nH]c(/C=C2\C(=O)Nc3ccccc32)c(C)c1CCC(=O)O,,human patients,"oral, 200 mg/m^2 three times daily, after meal, dose 82",15.2 ± 4.89 µg·h/mL
CC(C)NC[C@@H](C(=O)N1CCN(c2ncnc3c2[C@H](C)C[C@H]3O)CC1)c1ccc(Cl)cc1,,"human, Moderate hepatic function, plasma","oral, 100 mg single dose, NCI classification, geometric mean",0.985 µg·h/mL
Cc1c(C(=O)Nc2ccc(N3C[C@@H](C)O[C@@H](C)C3)nc2)cccc1-c1ccc(OC(F)(F)F)cc1,,"human, plasma","oral, 800 mg, 168 h, single dose, geometric mean",9.73 µg·h/mL
CNC(=O)c1c(C)oc2cc(Oc3ncnc4cc(OC)c(OC)cc34)ccc12,,"human, plasma","oral, 5 mg, fasted",4.86 µg·h/mL
COc1c(OCCCN2CCOCC2)ccc2c1N=C(NC(=O)c1cnc(N)nc1)N1CCN=C21,,"human solid tumour patients, plasma","intravenous, 0.8 mg/kg, cycle 1 day 15",1.53 µg·h/mL
Cc1ccc(C(=O)NC2CC2)cc1-n1ncc(C(=O)c2cccc(C#N)c2)c1N,,"human, plasma","oral, dose not given, geometric mean, with: itraconazole 200 mg oral daily days 1-14",6.64 µg·h/mL
Cc1ccc(NC(=O)c2ccc(CN3CCN(C)CC3)cc2)cc1Nc1nccc(-c2cncc(-c3oncc3C)c2)n1,,"older healthy human adults, plasma","oral, 25.0 mg single dose, fed, mean",22.7 µg·h/mL
CCOc1ccc(Cc2cc([C@@H]3S[C@H](CO)[C@@H](O)[C@H](O)[C@H]3O)c(OC)cc2C)cc1,,human,"oral, 5 mg, 0 to 48 h, fasted",1.86 ± 0.267 µg·h/mL
CN(C)Cc1c(C(=O)NCCOc2ccc(C(=O)NO)cc2)oc2ccccc12,,"human, plasma","oral, 80 mg single dose",0.294 ± 0.0765 µg·h/mL
O=S(=O)(c1cccc2cnccc12)N1CCCNCC1,,"human, plasma","oral, 30 mg",0.00029 µg·h/mL
CCCOc1ccc(S(=O)(=O)NCCC2CCCN2C)cc1-c1nc2c(CCC)nn(C)c2c(=O)[nH]1 (centres unmarked),,"healthy male humans, plasma","oral, 200 mg, with: dapoxetine 60 mg",4.38 ± 1.18 µg·h/mL
CC(=O)c1c(C)c2cnc(Nc3ccc(N4CCNCC4)cn3)nc2n(C2CCCC2)c1=O,,human,"oral, 95 mg/m^2 single dose, day 1",2.38 µg·h/mL
COc1cccc(-c2ccc(NC(=O)C3=C(C(=O)O)CCC3)c(F)c2)c1,,"human, male, fasted, plasma","oral, 20 mg, single dose, geometric mean",73 µg·h/mL
CN(Cc1nc2c(N)nc(N)nc2[nH]c1=O)c1ccc(C(=O)N[C@@H](CCC(=O)O)C(=O)O)cc1,,"human, plasma","oral, 20 mg methotrexate, day 1, alone, arithmetic mean",1.8 µg·h/mL
O=C(Nc1c(Cl)cncc1Cl)c1ccc(OC(F)F)c(OCC2CC2)c1,,"human adults, ≥18 years, plasma","topical, 0.3% cream once daily, day 15",0.0727 µg·h/mL
CN[C@@H]1COc2c(S(=O)(=O)NC(=O)Nc3c4c(cc5c3CCC5)CCC4)cnn2C1,,human,"oral, 600 mg, fasted, mean",172 µg·h/mL
O=C(O)CC[C@H]1CC[C@@](c2cc(F)ccc2F)(S(=O)(=O)c2ccc(Cl)cc2)CC1,,"human patients, plasma","oral, 1000 mg/m^2 weekly, median, dose 1 of course 1",1860 µg·h/mL
CCCS(=O)(=O)N[C@H]1C[C@@H](N(C)c2ncnc3[nH]ccc23)C1,,"humans, mild hepatic impairment","oral, 200 mg single",7.43 µg·h/mL
C[C@H]1O[C@@H](O[C@H]2[C@@H](O)C[C@H](O[C@H]3[C@@H](O)C[C@H](O[C@H]4CC[C@@]5(C)[C@H](CC[C@@H]6[C@@H]5C[C@@H](O)[C@]5(C)[C@@H](C7=CC(=O)OC7)CC[C@]65O)C4)O[C@@H]3C)O[C@@H]2C)C[C@H](O)[C@@H]1O,,human,"oral, dose not given, day 19, with: isavuconazole",0.0401 µg·h/mL
CO[C@H]1C[C@@H]2CC[C@@H](C)[C@@](O)(O2)C(=O)C(=O)N2CCCC[C@H]2C(=O)O[C@H]([C@H](C)C[C@@H]2CC[C@@H](OC(=O)C(C)(CO)CO)[C@H](OC)C2)CC(=O)[C@H](C)/C=C(\C)[C@@H](O)[C@@H](OC)C(=O)[C@H](C)C[C@H](C)/C=C/C=C/C=C/1C,,"human, whole blood","intravenous, 60 mg/m2 weekly, 0 to 24 h post dose, cycle 5, with: valproic acid",6.2 µg·h/mL
COc1cc2ncnc(Nc3ccc(F)c(Cl)c3)c2cc1OCCCN1CCOCC1,,"human, plasma","oral, 250 mg, with: vorinostat 400 mg",0.00385 ± 0.003 µg·h/mL
CCCCC[C@H](O)CC[C@@H]1[C@H]2Cc3cccc(OCC(=O)O)c3C[C@H]2C[C@H]1O,,"human Japanese PAH patients, plasma","inhalation, 54 µg four times daily, week 12",0.00099 ± 0.00057 µg·h/mL
COc1cc(Nc2ncc3c(n2)-c2ccc(Cl)cc2C(c2c(F)cccc2OC)=NC3)ccc1C(=O)O,,"human, plasma","oral, 50 mg single, fed",21.7 µM·h
CNc1nc(Nc2ccc(-n3cnc(C)n3)c(OC)c2)nc2c1CC[C@H]2c1ccc(F)cc1,,human,"oral, 50 mg once daily, day 28, multiple ascending dose",4.77 µg·h/mL
O=C(O)CNC(=O)c1c(O)c2ccccc2n(OCC2CC2)c1=O,LC-MS/MS,"human, blood","oral, 300 mg multiple doses",40.5 ± 18 µg·h/mL

# Repeated from above:
Structure (SMILES),test,test system,setting,AUC(0-t)
CNC(=O)c1ccc(-c2cnc3ncc(Cc4ccc5ncccc5c4)n3n2)cc1F,,"healthy human subjects, plasma","oral, 200 mg, geometric mean, with: itraconazole 200 mg/day",7.43 µg·h/mL
CCOc1ccc(Cc2cc([C@]34OC[C@](CO)(O3)[C@@H](O)[C@H](O)[C@H]4O)ccc2Cl)cc1,,"human, plasma","oral, 15 mg, with: sitagliptin 100 mg",1.45 µg·h/mL
Cc1cc(-c2nnc(N)nc2-c2ccc(F)cc2)cc(Cl)n1,,"human patients, plasma","oral, 75 mg nanosuspension, single dose, arithmetic mean",4.06 µg·h/mL
Cc1[nH]c(/C=C2\C(=O)Nc3ccccc32)c(C)c1CCC(=O)O,,human patients,"oral, 200 mg/m^2 three times daily, after meal, dose 82",15.2 ± 4.89 µg·h/mL
